{"data": "Assay results collected from several papers", "note": "Parts stem from different laboratories: compare values within a part only."}
{"data": "Sample 1", "target": "Prothrombin, mature alpha-thrombin (F2, Homo sapiens, UniProt P00734)", "method": "aptamer microarray, sandwich", "molecule type": "DNA with 2'F-ANA", "matrix": "in vitro", "tested at": "200 nM", "setting": "whole 15-mer aptamer, many near background", "added": "Cy3 exosite-II aptamer, 400 nM", "direction": "higher = stronger binding", "oligonucleotide": "GGTTGGTGTGGTTGG"}
{"Modification": "2'F-ANA at 1 2 5 6 8 10 13 14 15", "mean fluorescence intensity": "49.2 a.u."}
{"Modification": "2'F-ANA at 1 3 4 5 6 8 10 13 15", "mean fluorescence intensity": "59.5 a.u."}
{"Modification": "2'F-ANA at 1 2 5 6 8 9 11 15", "mean fluorescence intensity": "57.1 a.u."}
{"Modification": "2'F-ANA at 4 6 8 9 11 13 14 15", "mean fluorescence intensity": "78.7 a.u."}
{"Modification": "2'F-ANA at 1 2 3 5 6 7 9 10 11 14", "mean fluorescence intensity": "67.8 a.u."}
{"Modification": "2'F-ANA at 1 2 3 6 7 9 12 13 14 15", "mean fluorescence intensity": "82.5 a.u."}
{"Modification": "2'F-ANA at 2 3 4 5 6 7 9", "mean fluorescence intensity": "93.8 a.u."}
{"data": "Sample 2", "target": "Interferon regulatory factor 5, full length, phosphomimetic (IRF5, Homo sapiens, UniProt Q13568-2, residues 1-514, S451D/S453D/S456D/S462D)", "method": "protein-binding microarray", "molecule type": "double-stranded DNA, one strand shown", "matrix": "in vitro", "tested at": "940 nM top", "setting": "60-bp whole probe", "added": "salmon DNA 0.4 mg/ml", "baseline": "random background probes", "direction": "higher = stronger binding", "constant ends, left off below": "GCCTAGCAC … GTCTTGATTCGCTTGACGCTGCTG"}
{"Oligonucleotide": "GACGGTTTCGGTTCCGGAACGTGCTAG", "fitted relative affinity [z-score]": 13.6}
{"Oligonucleotide": "GACGGACTTGGTTTCGGGACGTGCTAG", "fitted relative affinity [z-score]": 4.78}
{"Oligonucleotide": "TCAACTTTCTCTGCTCTTACTGTGCTA", "fitted relative affinity [z-score]": 1.93}
{"Oligonucleotide": "TTAGGTTTCGACACTGGGCTAGTGCTA", "fitted relative affinity [z-score]": 7.81}
{"Oligonucleotide": "GGTGCCTCGGGTTCAGGGAGGTGCTAG", "fitted relative affinity [z-score]": -0.157}
{"Oligonucleotide": "ATAGATTTCGGGACTGGATTAGTGCTA", "fitted relative affinity [z-score]": 0.326}
{"Oligonucleotide": "GACCATTTCAGACTGGAGACGTGCTAG", "fitted relative affinity [z-score]": -0.131}
{"Oligonucleotide": "TTAGAACTGGGGACTGGATAAGTGCTA", "fitted relative affinity [z-score]": -0.0243}
{"Oligonucleotide": "GACGGACTGGGTCTGGGGACGTGCTAG", "fitted relative affinity [z-score]": -0.734}
{"data": "Sample 3", "target": "RING finger protein unkempt homolog, zinc fingers 1-6, GST-SBP tag (UNK, Homo sapiens, UniProt Q9C0B0, residues 30-357)", "method": "RNA Bind-n-Seq", "molecule type": "RNA", "matrix": "in vitro", "tested at": "not given", "setting": "RNA with constant flanks, human and mouse sites, ends assumed", "baseline": "input RNA pool", "direction": "higher = stronger binding", "constant ends, left off below": "GGGAGUUCUACAGUCCGACGAUC … CAACAGAGGAUUGAGCAUCA", "sequence of UniProt Q9C0B0 (30-357, looked up)": "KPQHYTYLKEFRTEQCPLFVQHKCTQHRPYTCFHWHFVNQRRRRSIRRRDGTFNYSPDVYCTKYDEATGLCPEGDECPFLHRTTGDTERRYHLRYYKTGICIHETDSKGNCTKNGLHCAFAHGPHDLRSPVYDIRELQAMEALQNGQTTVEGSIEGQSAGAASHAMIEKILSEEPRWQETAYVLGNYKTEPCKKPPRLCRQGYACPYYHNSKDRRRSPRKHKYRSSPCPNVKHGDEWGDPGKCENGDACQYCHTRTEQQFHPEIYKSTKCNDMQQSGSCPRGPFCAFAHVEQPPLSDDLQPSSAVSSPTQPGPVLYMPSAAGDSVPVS"}
{"Oligonucleotide": "ACCAACAAAGACAAGGCCGAACUAAUCCUGCCCAAUGGUCAAGAAGUAGACAUCCCGAUUUCCUACUUAACCUCAGUCUCAUCUUUGAUUGUGUGGCAUCCGGCCAACCCCGCUGAGAAA", "bound/input enrichment [ratio]": 0.175}
{"Oligonucleotide": "UGGACGAACCAUAAAUUCAACGUGACUGGCACCCCAGAACAAUAUGUACCUUAUUCUACCACUAGAAAGAAGAUUCAGGAGUGGAUCCCACCUUCAACACCUUACAAGUAAAGACAAUGA", "bound/input enrichment [ratio]": 0.546}
{"Oligonucleotide": "AUGUAUUCAAUAGAUCUCUACAACUAUGCCCCUUCUAGCAGGGAUACCUAUAACUUUGUGUUAGCACCAUGGAGAAUACAAUGUUUUUGCAACAUAUGAGAGAAGAUAGUUCUAGCCAUG", "bound/input enrichment [ratio]": 0.377}
{"Oligonucleotide": "GUAUUAAGUUCUUCUCCUGCUGAUAAAUUGGAUUCUCGAUUUAGGAAGGGAAAUUUUGGCACUAGAGAUGCUGAAACAGAUGGACCUGAGAAAGGAGAUCAAAAAGGCAAGGCUUCUCCA", "bound/input enrichment [ratio]": 0.272}
{"Oligonucleotide": "AUGCUCCUAGAAGCUGAAAAUGACAAAGAAGUUGAAAUUCUUAAAGAUAUCCGGGCACAUUUUAGUGCAAUGGUGGCCAACUUGAUUCAGUGUGUUCCAGUUCACCACCGAAGAUUUCUC", "bound/input enrichment [ratio]": 0.239}
{"Oligonucleotide": "UUUCUUUUUCUUUUUCUUUUUAAAAUGUUAAUGCCCGUUGUCUUUCCUGGGCUGUUUGCUAGCGGAAGGAUGCCAGGGAAGCCAGCAGGAGCUAGGAGAGAGUCCGUGGAUCUCGAAAGA", "bound/input enrichment [ratio]": 0.602}
{"Oligonucleotide": "GUUCAGGGGCUUUGGAAGGGGAUGAGGAAGGAGUAGAACUCCUCCUCAGUGUUGCCUCAUUGAAACUCUGUUUAUAGUUCUUGUGAUAUGCCUUCCUAGUCUCAACUUUCAACUUACAAA", "bound/input enrichment [ratio]": 0.753}
{"data": "Further values, each from its own experiment"}
{"Substance": "PhoQ, residues 284 288 289 292 302 303 GNNTDL", "target": "PhoP, residues 12 14 15 18 19 SMASL (Escherichia coli, UniProt P23836)", "assay": "Sort-seq, measured: YFP reporter", "system": "E. coli", "setting": "PhoQ-PhoP variant library, added: 10 µM Mg2+", "scale": "baseline: high Mg2+ state, higher = stronger signaling", "endpoint": "fold induction", "value": 1.48}
{"note": "Some of these lines once more (sample 1):"}
{"Modification": "2'F-ANA at 1 2 3 5 6 7 9 10 11 14", "mean fluorescence intensity": "67.8 a.u."}
{"Modification": "2'F-ANA at 2 3 4 5 6 7 9", "mean fluorescence intensity": "93.8 a.u."}
{"Modification": "2'F-ANA at 1 2 5 6 8 10 13 14 15", "mean fluorescence intensity": "49.2 a.u."}
